Measurements from different studies.
A part holds a random share of what one study measured. Substitutions count along the parent as printed.

Sample 1 — technique: protein-binding microarray; molecule type: double-stranded DNA, one strand shown; sample: in vitro; concentration: 250 nM; notes: 60-bp whole probe; with: salmon DNA 0.4 mg/ml; baseline: random background probes; direction: higher = stronger binding; constant ends, left off below: GCCTAGCAC … GTCTTGATTCGCTTGACGCTGCTG
Target: Interferon regulatory factor 5, full length, phosphomimetic (IRF5, Homo sapiens, UniProt Q13568-2, residues 1-514, K96S/S451D/S453D/S456D/S462D)
For `TTAGGTTCCGGTTTCGGTGAGTGCTAG`, the log fluorescence was 8.29 z-score.
`CCCAATAATCTTTTCACTTTGTGCTAG` has a log fluorescence of 1.43 z-score.
For `TCATTTCTATCTCTGTTACTGTGCTAG`, the log fluorescence was 2.37 z-score.
The log fluorescence of `TTAGGTTTCCGTCTCCTTTAGTGCTAG` is reported as 1.28 z-score.
The log fluorescence of `TTAGATTTCAGTCTCGATCAGTGCTAG` is reported as 2.68 z-score.
`TCACATTACAGCTATTTTACTGTGCTA` has a log fluorescence of 0.936 z-score.
`GACGGTTTCCTTATCATGACGTGCTAG` has a log fluorescence of 0.856 z-score.
`TTAGAACTGAGTATCAATTAGTGCTAG` has a log fluorescence of 1.27 z-score.
With `TTAGGGATCGGGTATCGGTTAGTGCTA` the log fluorescence was 3.86 z-score.
The log fluorescence of `AGGGTCATCCATCTGAACCAGTGCTAG` is reported as -0.56 z-score.

Sample 2 — technique: RNA Bind-n-Seq; molecule type: RNA; sample: in vitro; concentration: 200 nM; notes: whole 134-nt RNA, ends assumed; with: 150 mM KCl; baseline: input library; direction: higher = stronger binding
Target: Fragile X messenger ribonucleoprotein 1, C-terminal low-complexity region (Fmr1, Mus musculus, UniProt P35922)
Constant ends, left off below: GGGAGUUCUACAGUCCGACGAUC … UGGAAUUCUCGGGUGUCAAGG
The log2 enrichment of `ACCAUGCAGGUGGGCAUCUUUGGGAAGUGGGGCAAGGGGGGGAUAGGGAGGGGAGUAACACUUUGGGAACAGGUGGUCCCAGGUCGUUUC` is reported as 0.847.
`UCCUGUGCUACACAUCGUAUGUACCGAAUCGGGGUGGGGUUUUUUUGGGGAAAAAGGGGAAAGUAUUAUGUUACGCCGUUCGGAUCUGCA` has a log2 enrichment of 0.792.
For `GUCCUGUGCUACACAUCGUAUGUACCGAAUCGGGGAAAGGGGUUUGGGGUUUUUGGGGAAAGUAUUAUGUUACGCCGUUCGGAUCUGCAC`, the log2 enrichment was 0.62.
The log2 enrichment of `ACCAUGCAGGUGGGCAUAUUUGGGAAGUGGGGCAAGGGGGGGAUAGGGAGGGGGGUAACACUUUGGGAACAGGUGGUCCCAGGUCGUUUC` is reported as 0.634.
For `GCAGGAAGUAAAAACAAAUGGAAAUGCUACGGAUAGUGGCAGGGGUGGGGGUUGCUAAGGAAAGGGUGGGAUGGGAGUGGGUAAAGAGUU`, the log2 enrichment was 0.988.
The log2 enrichment of `UCAAGUCCUGUGCUACACAUCGUAUGUACCGAAUCGGGUUGGGGUUGGUUGGGGAAAGUAUUAUGUUACGCCGUUCGGAUCUGCACUUCC` is reported as 0.989.
With `GCAGGAAGUAAAAACAAAUGGAAAUGCUUCGGAUAGUUGCAGGGGUGGGGGUUGCUAAGGAAAGGGUGGGAUGGGAGUGGGUAAAGAGUU` the log2 enrichment was 0.0943.
`UGGCCCUGGUGGCAUGCGGGGAGGAAGAGGAGGCCUCAUGGAUCGUGGUGGUCCCGGUGGAAUGUUCAGAGGUGGCCGUGGUGGAGACAG` has a log2 enrichment of 0.117.
The log2 enrichment of `UAACUUUAGAGGAGGAUCUGAUGGAUAUGGCAGUGGACGUGGAUUUGGGGAUGGCUAUAAUGGGUAUGGACGAGGACCUGGAGGUGGCAA` is reported as 0.219.

Sample 3 — target: CCND3, cyclin fold, Cln2 fusion (human); technique: yeast growth competition, sequencing; sample: yeast; notes: weak parent motif; baseline: not given; direction: higher = stronger binding
Starting sequence: SLBP docking peptide (human); ARYKRKLLINDFG
`I9E`: “normalised enrichment score” 0.147.
Under “normalised enrichment score”, `K4V` is recorded as 0.121.
Under “normalised enrichment score”, `L7F` is recorded as 0.154.
`L7V` — result for “normalised enrichment score”: 0.107.
For `R5A`, “normalised enrichment score” read 0.14.
Under “normalised enrichment score”, `Y3L` is recorded as 0.2.
For `K4G`, “normalised enrichment score” read 0.138.
`I9K` — result for “normalised enrichment score”: 0.0399.
For `L7M`, “normalised enrichment score” read 0.178.
Under “normalised enrichment score”, `G13K` is recorded as 0.188.
`I9S`: “normalised enrichment score” 0.228.
For `K4N`, “normalised enrichment score” read 0.142.
For `R2W`, “normalised enrichment score” read 0.141.

Sample 4 — technique: protein binding microarray; molecule type: double-stranded DNA, one strand shown; sample: in vitro; concentration: not given; baseline: not given; direction: higher = stronger binding
Target: Histone acetyltransferase KAT6A, winged helix 2, GST fusion (KAT6A, Homo sapiens, UniProt Q92794, residues 85-181)
Notes: 8-mer, flanks averaged, mean of 2 arrays, mostly near background
Target sequence (chain): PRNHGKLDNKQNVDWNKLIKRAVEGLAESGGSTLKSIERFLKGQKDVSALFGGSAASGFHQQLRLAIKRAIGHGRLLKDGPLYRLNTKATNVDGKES
With `TCCGAGCA` the E-score was 0.0816.
`AGTTTAGA` gave an E-score of -0.143.
With `AGGCGCGG` the E-score was 0.109.
With `CTAAAATC` the E-score was -0.0154.
`CATCCGCG` gave an E-score of 0.0702.
`AATACATA` gave an E-score of 0.0352.
`ACCAGGGA` has an E-score of -0.00553.
With `GTACTGTA` the E-score was -0.18.
`CCTGCTCG` gave an E-score of 0.0134.
`CGAAACCG` has an E-score of 0.167.
`CTAGCGTA` has an E-score of -0.217.
`GCACATCC` gave an E-score of 0.0469.
For `ATAATATA`, the E-score was 0.151.
The E-score of `GTGGCCTA` is reported as -0.149.
With `AACACAAT` the E-score was -0.0272.
With `CATCAATC` the E-score was -0.133.
`ACTTCACA` has an E-score of -0.118.
For `GCCTCGTA`, the E-score was -0.0402.

Repeated from above (sample 2):
`UCCUGUGCUACACAUCGUAUGUACCGAAUCGGGGUGGGGUUUUUUUGGGGAAAAAGGGGAAAGUAUUAUGUUACGCCGUUCGGAUCUGCA` has a log2 enrichment of 0.792.
For `GUCCUGUGCUACACAUCGUAUGUACCGAAUCGGGGAAAGGGGUUUGGGGUUUUUGGGGAAAGUAUUAUGUUACGCCGUUCGGAUCUGCAC`, the log2 enrichment was 0.62.
The log2 enrichment of `ACCAUGCAGGUGGGCAUAUUUGGGAAGUGGGGCAAGGGGGGGAUAGGGAGGGGGGUAACACUUUGGGAACAGGUGGUCCCAGGUCGUUUC` is reported as 0.634.
For `GCAGGAAGUAAAAACAAAUGGAAAUGCUACGGAUAGUGGCAGGGGUGGGGGUUGCUAAGGAAAGGGUGGGAUGGGAGUGGGUAAAGAGUU`, the log2 enrichment was 0.988.
The log2 enrichment of `UCAAGUCCUGUGCUACACAUCGUAUGUACCGAAUCGGGUUGGGGUUGGUUGGGGAAAGUAUUAUGUUACGCCGUUCGGAUCUGCACUUCC` is reported as 0.989.
